Assay results pooled from the literature.
Parts stem from different laboratories: compare values within a part only.

Block 1 — technique: protein-binding microarray; form: double-stranded DNA, one strand shown; sample: in vitro; concentration: 2200 nM top; setting: 60-bp whole probe; together with: salmon DNA 0.4 mg/ml; baseline: random background probes; direction: higher = stronger binding; all sequences stand within: GCCTAGCAC … GTCTTGATTCGCTTGACGCTGCTG
Target: Interferon regulatory factor 7, full length, phosphomimetic (IRF7, Homo sapiens, UniProt Q92985, residues 1-503, S471D/S472D/S475D/S476D/S477D/S483D/S484D/S487D)
Residues (chain): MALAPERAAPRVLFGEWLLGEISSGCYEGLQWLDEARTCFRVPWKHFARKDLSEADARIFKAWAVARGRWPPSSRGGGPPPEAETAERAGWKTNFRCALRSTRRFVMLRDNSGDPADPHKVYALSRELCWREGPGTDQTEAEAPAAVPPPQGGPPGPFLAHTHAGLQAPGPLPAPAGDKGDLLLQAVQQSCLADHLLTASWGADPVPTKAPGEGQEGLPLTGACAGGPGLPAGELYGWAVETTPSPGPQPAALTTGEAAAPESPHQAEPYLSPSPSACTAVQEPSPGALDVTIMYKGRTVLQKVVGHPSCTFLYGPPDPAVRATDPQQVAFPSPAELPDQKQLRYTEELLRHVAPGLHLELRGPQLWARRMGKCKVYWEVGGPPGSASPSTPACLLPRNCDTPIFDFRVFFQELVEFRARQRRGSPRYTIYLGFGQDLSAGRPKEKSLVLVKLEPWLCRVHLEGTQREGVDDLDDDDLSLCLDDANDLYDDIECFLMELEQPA
Oligonucleotide	fitted relative affinity [z-score]
TCAGAAATTCCTCTGAAACTGTGCTAG	-0.0993
TTAGGTTTCGGTTTCGCTTAGTGCTAG	14.9
GACGATATCGGGTATCGGGACGTGCTA	-0.0593
GACGGTTTCCTTATACTGACGTGCTAG	2.47
CTTTCCTTTGCTTTCTCCCAGTGCTAG	3.56
GACGATTTCGGGACTGGAGTCGTGCTA	1.47

Block 2 — technique: RNA Bind-n-Seq; form: RNA; sample: in vitro; concentration: 365 nM; baseline: no-protein control; direction: higher = stronger binding
Target: RNA binding protein fox-1 homolog 2, RRM domain, GST-SBP tag (RBFOX2, Homo sapiens, UniProt O43251-10, residues 100-194)
Setting: natural RNA segment, single round, ends assumed
Target sequence (chain): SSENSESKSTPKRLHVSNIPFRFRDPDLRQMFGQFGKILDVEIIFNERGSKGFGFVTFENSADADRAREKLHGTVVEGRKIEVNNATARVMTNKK
Oligonucleotide	RBNS enrichment (R)
GGGAGUUCUACAGUCCGACGAUCUGACCAUGUAAAAGAUCUGUUACCCCUAGAGUGUUGAGCCUGCUGAUUUCAUUUAGGACAAAUGUGCAUGUUCUGAAUGAAAUGAGAGAAAUGCUGUAUUUAUUGAUAACUGGAAUUCUCGGGUGCCAA	1.09
GGGAGUUCUACAGUCCGACGAUCACCAAAUUGGCUUUACCAUCUUGGCUUUAGUAGGUAUAGAAGACAAUGGAUUACCAUCUUUAUUGCUGUAAUGUGUUAAGCAUUAUAUGCUAGUAGAAUCUAGUUUAAUUUGGAAUUCUCGGGUGCCAA	0.309
GGGAGUUCUACAGUCCGACGAUCCCCUUUCCCUGGGGCCAGAUCAGGACACAGCACAGGGCAGGAGGCCCUGCCUAGCUUAAAGUAUAGUCAUGAGAUGGAGUUGGGAGCACUAUACUGGUCACUUACCACCUUGGAAUUCUCGGGUGCCAA	0.503
GGGAGUUCUACAGUCCGACGAUCGAAAGCAGGUUCUGUGGGACCCCCCGCCCCGCCCCCCGCACUCCUUCAUAGCAGCAGUAGUGGCUUCUCCAUCCUGUUUUCUGCAACAUUCUAUACAAAACUGUGCUGUGUGGAAUUCUCGGGUGCCAA	0.498

Block 3 — technique: protein binding microarray; form: double-stranded DNA, one strand shown; sample: in vitro; concentration: not given; baseline: not given; direction: higher = stronger binding
Target: Histone acetyltransferase KAT6A, winged helix 1, GST fusion (KAT6A, Homo sapiens, UniProt Q92794, residues 1-85)
Setting: 8-mer, flanks averaged, mean of 2 arrays, mostly near background
Residues (chain): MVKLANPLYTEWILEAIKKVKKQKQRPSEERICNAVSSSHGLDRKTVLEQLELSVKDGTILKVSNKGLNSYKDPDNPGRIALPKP
Oligonucleotide	E-score
AAGGGGTC	-0.134
CCAGTTAC	-0.0987
GGGTGCTA	-0.0419
GACGCTGA	0.0931
GATCCATA	0.0439
AAGCCAAG	-0.213
AATATGGC	-0.0702
AATGCCGC	0.421
CAAGTTCG	-0.122

Single results of other studies
Molecule	target	assay	system	conditions	how to read	quantity	result
PhoQ, residues 284 288 289 292 302 303 SLKLQV	PhoP, residues 12 14 15 18 19 QYFSL (Escherichia coli, UniProt P23836)	Sort-seq, measured: YFP reporter	E. coli	PhoQ-PhoP variant library, together with: 10 µM Mg2+	baseline: high Mg2+ state, higher = stronger signaling	fold induction	7.5
